Measured values from different studies.
Protocols differ between the studies behind these lines. Values joined by “and” are separate records of one study, mostly repeats; a detail may differ. Numbers after ± are the reported error.

Compound | assay | system | setting | how to read | quantity | value
COC1OC(C)C(OS(=O)(=O)O)C(OC2OC(C)C(OS(=O)(=O)O)C(OC3OC(C)C(OS(=O)(=O)O)C(OS(=O)(=O)O)C3O)C2O)C1O (stereo not drawn) | – | human plasma | 128 µg/mL | – | thrombin time | 9.7 ± 0.8 s
CN1CCC[C@]1(C)/C=C/S(=O)(=O)NC(=O)Nc1c2c(cc3c1CCC3)CCC2 | – | human, whole blood ex vivo | 50 mg twice daily, day 19, 108 h, multiple ascending dose, added: LPS and ATP | – | IL-1β inhibition | -0.5%
COC1CN([C@H]2CC[C@H]([C@@]3(C)Oc4c(Cl)cc(C(=O)NCc5c(SC)cc(C)[nH]c5=O)c(C)c4O3)CC2)C1 | RNA-seq, item: B3GALNT1 | human, whole blood | dose not given, 24 h | reference: pretreatment baseline | log2 fold change | 2.06
COC1OC(C)C(OS(=O)(=O)O)C(OC2OC(C)C(OS(=O)(=O)O)C(OC3OC(C)C(OS(=O)(=O)O)C(OC4OC(C)C(OS(=O)(=O)O)C(OC5OC(C)C(OS(=O)(=O)O)C(OS(=O)(=O)O)C5O)C4O)C3O)C2O)C1O (stereo not drawn) | – | human plasma | 128 µg/mL | – | thrombin time | 9.8 ± 0.3 s
Nc1nc2cc(CC[C@H]3C[C@@H](n4ccc5c(N)ncnc54)[C@H](O)[C@@H]3O)ccc2cc1Br | – | NCI-H441 xenograft, mouse | 10.0 mg/kg/day, day 38 | – | tumour volume | 49 ± 5 mm3
COC1OC(C)C(O)C(OC2OC(C)C(O)C(OC3OC(C)C(O)C(OC4OC(C)C(O)C(OC5OC(C)C(O)C(OC6OC(C)C(O)C(OC7OC(C)C(O)C(OC8OC(C)C(O)C(OS(=O)(=O)O)C8OS(=O)(=O)O)C7OS(=O)(=O)O)C6OS(=O)(=O)O)C5OS(=O)(=O)O)C4OS(=O)(=O)O)C3OS(=O)(=O)O)C2OS(=O)(=O)O)C1OS(=O)(=O)O (stereo not drawn) | – | human plasma | 128 µg/mL | reference: control | thrombin time prolongation | 1 fold
CC(=O)[O-].O.O.O.O.[Co+2].[O-]c1ccc(Br)cc1C=NCCN1CCOCC1 | nitric oxide scavenging | – | 200 µM | – | inhibition | 40.8%
NC[C@@H](C(=O)Nc1ccc(-c2cn[nH]c2)cc1)c1ccccc1 | tonometry | Macaca cyclopis, ocular normotensive | ocular, 0.03%, 24 h | – | IOP | 18.3 mmHg
COc1ccc(C(=O)CCc2cc(C(CCc3ccc(O)cc3OC)c3ccc(O)cc3)c(O)cc2OC)cc1 (racemic) | – | human blood | 30 µM, added: A23187 | – | PGE2 level | 38 ± 8 pg/mL
COC1OC(C)C(OC2OC(C)C(OS(=O)(=O)O)C(OC3OC(C)C(OC4OC(C)C(OS(=O)(=O)O)C(OS(=O)(=O)O)C4O)C(OS(=O)(=O)O)C3O)C2O)C(OS(=O)(=O)O)C1O (stereo not drawn) | – | human plasma | 128 µg/mL | – | thrombin time | 9.6 ± 0.3 s
Cc1ccc(N(O)/N=N/c2ccc(S(=O)(=O)Nc3nccs3)cc2)cc1 | DPPH scavenging, absorbance | – | 20 µg/mL | – | inhibition | 24.9%
O=C(N[C@@H](Cc1ccc(OCCCCC2CCNCC2)cc1)C(=O)O)c1nc2ccccc2o1.O=C(O)C(F)(F)F | platelet aggregation, inhibitor, impedance aggregometry | human, whole blood, 1:1 saline | 75 nM, 6 min, 37 °C, added: ADP 20 µM | higher = more aggregation | aggregation impedance AUC | 33 a.u. and 22.7 a.u. and 22.2 a.u. and 41.9 a.u. and 28.6 a.u.
COC1OC(C)C(OC2OC(C)C(O)C(OC3OC(C)C(OC4OC(C)C(O)C(OC5OC(C)C(OC6OC(C)C(O)C(OC7OC(C)C(OC8OC(C)C(O)C(OC9OC(C)C(OC%10OC(C)C(O)C(OS(=O)(=O)O)C%10OS(=O)(=O)O)C(OS(=O)(=O)O)C9OS(=O)(=O)O)C8OS(=O)(=O)O)C(OS(=O)(=O)O)C7OS(=O)(=O)O)C6OS(=O)(=O)O)C(OS(=O)(=O)O)C5OS(=O)(=O)O)C4OS(=O)(=O)O)C(OS(=O)(=O)O)C3OS(=O)(=O)O)C2OS(=O)(=O)O)C(OS(=O)(=O)O)C1OS(=O)(=O)O (stereo not drawn) | – | human plasma | 128 µg/mL | – | thrombin time | 10.3 ± 1.1 s
COc1cc2c(NC3CCN(C(C)C)CC3)cc(N3CCOCC3)nc2cc1OCCCN1CCCC1 | TMT quantitative proteomics, item: ALDOA | FAD AD model mice, hippocampus | dose not given | – | normalised protein abundance | -0.014 and -0.0463 and -0.0488 and -0.043 and -0.0217 and -0.0326 and -0.0366 and -0.0449
COc1cc(O)ccc1CCC(c1ccc(O)cc1)c1cc2c(c(C)c1O)OC(c1ccc(O)cc1)CC2 (mixture of isomers) | item: 15-HEPE | human whole blood | 3 µM, added: Escherichia coli | – | amount | 164 ± 61 pg/mL blood

A few entries again:
Compound | assay | system | setting | how to read | quantity | value
CC(=O)[O-].O.O.O.O.[Co+2].[O-]c1ccc(Br)cc1C=NCCN1CCOCC1 | nitric oxide scavenging | – | 200 µM | – | inhibition | 40.8%
